Published values collected from several papers.
Each numbered part is a random draw from the data of one study; scales do not carry over between parts. Positions count from the first letter of the parent shown.

Study 1 — target: CCNB1, cyclin fold, Cln2 fusion (human); technique: yeast growth competition, sequencing; matrix: yeast; setting: weak parent motif; reference: not given; direction: higher = stronger binding
Starting sequence: RB1 docking peptide (human); PKPLKKLRFDIEG
Under “normalised enrichment score”, `PKPLKYLRFDIEG [K6Y]` is recorded as -0.431.
Under “normalised enrichment score”, `PKPLKKLRFDIDG [E12D]` is recorded as 0.19.
For `PKKLKKLRFDIEG [P3K]`, “normalised enrichment score” read 0.594.
Under “normalised enrichment score”, `PKPLKMLRFDIEG [K6M]` is recorded as 0.43.
`PKPLKKLRFDIEA [G13A]`: “normalised enrichment score” 0.697.
`PKPLKKARFDIEG [L7A]`: “normalised enrichment score” 0.551.
`PKPLSKLRFDIEG [K5S]` — result for “normalised enrichment score”: 0.843.
Under “normalised enrichment score”, `PKPLKPLRFDIEG [K6P]` is recorded as 0.175.
Under “normalised enrichment score”, `PKPLKKLRFDKEG [I11K]` is recorded as 0.649.
For `PKPKKKLRFDIEG [L4K]`, “normalised enrichment score” read 0.0878.
`PKPLKKLRFMIEG [D10M]` — result for “normalised enrichment score”: 1.16.

Study 2 — technique: protein-binding microarray; form: double-stranded DNA, one strand shown; matrix: in vitro; concentration: 250 nM; setting: 60-bp whole probe; added: salmon DNA 0.4 mg/ml; reference: random background probes; direction: higher = stronger binding
Target: Interferon regulatory factor 5, full length, phosphomimetic (IRF5, Homo sapiens, UniProt Q13568-2, residues 1-514, K96S/S451D/S453D/S456D/S462D)
Constant ends, left off below: GCCTAGCAC … GTGCTAGGTCTTGATTCGCTTGACGCTGCTG
The log fluorescence of `TTAGGTTTCCTTCTCCTATA` is reported as 1.33 z-score.
With `TCAAATTTACTTTGGTTACT` the log fluorescence was 0.402 z-score.
For `GACGGTCTCCGTTTCGGGAC`, the log fluorescence was 1.93 z-score.
For `GACGGTTTCGGTCTCTGGAC`, the log fluorescence was 9.61 z-score.
`GACGAAGTGAGACTGGAGAC` gave a log fluorescence of -0.335 z-score.
`GTCGGTTTCGGACTGGGGAC` gave a log fluorescence of 5.04 z-score.
The log fluorescence of `GACGGTTTCCGTCTCGGGAC` is reported as 1.03 z-score.
The log fluorescence of `TTAGATCTCAGCATCGATTA` is reported as 0.385 z-score.
With `TTAGGTTTCGGTTCCGGTTA` the log fluorescence was 10.6 z-score.
`TTAGGTTTAGGTCTCGGTTA` has a log fluorescence of 0.482 z-score.
With `TTACATCTCAGACTGGATTA` the log fluorescence was 0.376 z-score.

Study 3 — technique: protein binding microarray; form: double-stranded DNA, one strand shown; matrix: in vitro; concentration: not given; reference: not given; direction: higher = stronger binding
Target: Histone acetyltransferase KAT6A, winged helix 2, GST fusion (KAT6A, Homo sapiens, UniProt Q92794, residues 85-181)
Setting: 8-mer, flanks averaged, mean of 2 arrays, mostly near background
Target sequence (chain): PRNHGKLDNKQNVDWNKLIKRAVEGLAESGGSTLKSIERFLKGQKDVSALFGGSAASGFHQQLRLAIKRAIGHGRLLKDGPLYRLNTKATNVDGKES
With `GTAGCTCA` the E-score was 0.0589.
`CTAACGGA` gave an E-score of 0.0829.
For `TCGCCCAA`, the E-score was 0.178.
For `CAGCGCCA`, the E-score was 0.0496.
`AAGGGCCA` gave an E-score of -0.0564.
With `AAAGACAC` the E-score was 0.12.
With `AACTATCT` the E-score was -0.0729.
`AAGGGAGA` gave an E-score of -0.0127.
The E-score of `GAGTACGA` is reported as -0.061.
With `GCTCAAAA` the E-score was 0.141.

Further values, each from its own experiment
`PhoQ, residues 284 288 289 292 302 303 SSTLSG` gave a fold induction of 8 (PhoP, residues 12 14 15 18 19 AQALL (Escherichia coli, UniProt P23836); Sort-seq, refers to: YFP reporter; E. coli; PhoQ-PhoP variant library, added: 10 µM Mg2+; reference: high Mg2+ state, higher = stronger signaling).

For quick reference, copied from above (study 3):
For `CAGCGCCA`, the E-score was 0.0496.
`AAGGGCCA` gave an E-score of -0.0564.
